{"data": "Experimental data from different studies", "note": "Parts stem from different laboratories: compare values within a part only. ± marks the error that the study gave.", "UniProt P34913, sequence (whole entry, looked up)": "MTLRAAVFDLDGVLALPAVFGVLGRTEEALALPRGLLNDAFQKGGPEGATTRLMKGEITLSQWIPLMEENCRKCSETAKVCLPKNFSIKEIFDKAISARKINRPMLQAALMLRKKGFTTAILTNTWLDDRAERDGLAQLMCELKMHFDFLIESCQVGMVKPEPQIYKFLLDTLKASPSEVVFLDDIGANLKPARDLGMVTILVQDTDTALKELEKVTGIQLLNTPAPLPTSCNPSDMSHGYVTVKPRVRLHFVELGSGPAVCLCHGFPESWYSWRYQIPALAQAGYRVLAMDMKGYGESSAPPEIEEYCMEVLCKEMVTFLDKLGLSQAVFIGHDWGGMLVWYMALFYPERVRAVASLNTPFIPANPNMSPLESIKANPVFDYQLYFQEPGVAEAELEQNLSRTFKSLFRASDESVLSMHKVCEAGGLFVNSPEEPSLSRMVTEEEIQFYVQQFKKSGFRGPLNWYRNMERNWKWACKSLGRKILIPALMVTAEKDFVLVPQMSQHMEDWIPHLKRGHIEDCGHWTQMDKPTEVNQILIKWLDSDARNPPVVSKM"}
{"data": "Set 1", "Structure (SMILES)": "Cc1cc(OCc2nnc(SC3CCCC3)n2-c2cccnc2)ccc1-c1ccc(S(C)(=O)=O)cc1"}
{"cell line": "SK-MEL-5", "CC50 [µM]": 3.74}
{"cell line": "SF-539", "CC50 [µM]": 7.5}
{"cell line": "ACHN", "CC50 [µM]": 8.53}
{"data": "Single results of other studies"}
{"Substance": "O=C(Nc1ccc(-c2cnc3ccccc3c2)cc1)C1CCN(Cc2ccc([N+](=O)[O-])cc2)CC1", "test system": "sodium phosphate buffer, 1% DMSO", "setting": "pH 7.4", "endpoint": "solubility", "result": "31 to 63 µM"}
{"Substance": "pyc (Rhizobium etli, UniProt Q2K340)", "tested on": "NC(=O)OP(=O)(O)O", "test": "steady-state kinetics", "setting": "pH 7.5, 25 °C, apparent", "endpoint": "kcat", "result": "0.04017 ± 0.000167 s⁻¹"}
{"Substance": "Cc1ccc(S(=O)(=O)Nc2c(N3CCC(NC(=O)Nc4ccc(F)c(Cl)c4)CC3)c(=O)c2=O)cc1", "tested on": "EPHX2 (Homo sapiens, UniProt P34913)", "endpoint": "IC50", "result": "0.0751 ± 0.0085 µM"}
{"note": "Repeated from above (single results of other studies):"}
{"Substance": "O=C(Nc1ccc(-c2cnc3ccccc3c2)cc1)C1CCN(Cc2ccc([N+](=O)[O-])cc2)CC1", "test system": "sodium phosphate buffer, 1% DMSO", "setting": "pH 7.4", "endpoint": "solubility", "result": "31 to 63 µM"}
